Measurements of several laboratories.
Every numbered part comes from another study and shows a few of its results, in no order. Substitutions count along the parent as printed.
Sequence of UniProt Q15418 (whole entry, looked up): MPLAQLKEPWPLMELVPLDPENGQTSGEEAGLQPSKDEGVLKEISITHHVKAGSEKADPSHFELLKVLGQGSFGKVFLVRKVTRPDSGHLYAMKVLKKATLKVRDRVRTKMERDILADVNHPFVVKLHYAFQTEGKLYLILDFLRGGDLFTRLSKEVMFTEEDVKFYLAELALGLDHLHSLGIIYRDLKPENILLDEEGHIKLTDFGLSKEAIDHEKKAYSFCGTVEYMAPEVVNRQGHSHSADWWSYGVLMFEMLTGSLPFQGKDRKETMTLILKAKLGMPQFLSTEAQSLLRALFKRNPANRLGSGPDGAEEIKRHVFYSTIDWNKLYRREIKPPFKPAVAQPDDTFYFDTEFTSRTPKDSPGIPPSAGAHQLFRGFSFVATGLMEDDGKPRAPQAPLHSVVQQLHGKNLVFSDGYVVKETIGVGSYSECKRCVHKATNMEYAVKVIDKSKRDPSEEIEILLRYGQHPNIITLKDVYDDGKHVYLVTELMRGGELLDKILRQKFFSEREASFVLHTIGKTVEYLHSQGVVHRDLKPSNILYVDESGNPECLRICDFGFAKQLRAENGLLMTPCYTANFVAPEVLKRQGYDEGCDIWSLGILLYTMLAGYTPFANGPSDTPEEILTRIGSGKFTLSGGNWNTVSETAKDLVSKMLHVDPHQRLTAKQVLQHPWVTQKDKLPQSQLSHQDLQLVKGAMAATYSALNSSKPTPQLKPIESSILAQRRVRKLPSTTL
Sequence of UniProt Q6PHR2 (whole entry, looked up): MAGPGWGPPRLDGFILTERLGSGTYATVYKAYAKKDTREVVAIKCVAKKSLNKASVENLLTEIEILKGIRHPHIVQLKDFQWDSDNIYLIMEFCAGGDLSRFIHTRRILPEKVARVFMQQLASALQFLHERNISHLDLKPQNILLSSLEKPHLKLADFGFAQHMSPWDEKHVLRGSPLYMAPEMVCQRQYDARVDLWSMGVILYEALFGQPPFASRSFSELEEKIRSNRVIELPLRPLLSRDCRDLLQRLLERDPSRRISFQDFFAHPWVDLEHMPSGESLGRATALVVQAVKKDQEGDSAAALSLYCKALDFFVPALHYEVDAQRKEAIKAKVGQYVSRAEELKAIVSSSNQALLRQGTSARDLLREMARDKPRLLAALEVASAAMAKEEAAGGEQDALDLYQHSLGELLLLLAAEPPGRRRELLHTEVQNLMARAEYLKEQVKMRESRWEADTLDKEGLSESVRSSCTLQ
Sequence of UniProt P00519 (whole entry, unmodified, looked up): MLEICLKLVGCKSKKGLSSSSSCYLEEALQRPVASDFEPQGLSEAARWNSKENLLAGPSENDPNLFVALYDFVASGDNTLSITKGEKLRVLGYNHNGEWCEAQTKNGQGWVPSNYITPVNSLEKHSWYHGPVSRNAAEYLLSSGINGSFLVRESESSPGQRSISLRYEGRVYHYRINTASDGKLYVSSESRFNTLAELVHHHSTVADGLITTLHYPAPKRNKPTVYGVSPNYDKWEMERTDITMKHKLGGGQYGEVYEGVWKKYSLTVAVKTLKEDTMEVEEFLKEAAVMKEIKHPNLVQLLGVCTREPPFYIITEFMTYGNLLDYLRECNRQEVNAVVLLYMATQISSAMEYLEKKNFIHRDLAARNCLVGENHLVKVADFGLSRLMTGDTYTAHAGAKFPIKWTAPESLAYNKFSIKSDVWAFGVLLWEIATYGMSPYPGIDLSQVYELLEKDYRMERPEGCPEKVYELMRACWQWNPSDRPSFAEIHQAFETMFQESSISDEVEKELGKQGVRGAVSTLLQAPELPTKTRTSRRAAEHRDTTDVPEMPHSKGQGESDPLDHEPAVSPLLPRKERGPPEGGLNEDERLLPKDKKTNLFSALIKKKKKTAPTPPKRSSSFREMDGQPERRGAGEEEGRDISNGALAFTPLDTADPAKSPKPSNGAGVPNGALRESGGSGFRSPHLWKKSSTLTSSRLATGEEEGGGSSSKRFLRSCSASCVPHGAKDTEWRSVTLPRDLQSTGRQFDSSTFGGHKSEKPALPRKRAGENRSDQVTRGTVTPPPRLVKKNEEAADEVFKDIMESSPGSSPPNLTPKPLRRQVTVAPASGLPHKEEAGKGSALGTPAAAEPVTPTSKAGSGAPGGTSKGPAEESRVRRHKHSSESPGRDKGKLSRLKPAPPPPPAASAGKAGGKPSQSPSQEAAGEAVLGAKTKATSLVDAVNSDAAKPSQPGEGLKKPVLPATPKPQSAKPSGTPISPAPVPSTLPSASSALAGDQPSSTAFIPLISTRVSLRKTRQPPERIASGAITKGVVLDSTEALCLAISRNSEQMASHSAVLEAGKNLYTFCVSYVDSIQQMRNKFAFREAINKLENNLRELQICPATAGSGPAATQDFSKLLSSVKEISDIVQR
Sequence of UniProt P35626 (whole entry, looked up): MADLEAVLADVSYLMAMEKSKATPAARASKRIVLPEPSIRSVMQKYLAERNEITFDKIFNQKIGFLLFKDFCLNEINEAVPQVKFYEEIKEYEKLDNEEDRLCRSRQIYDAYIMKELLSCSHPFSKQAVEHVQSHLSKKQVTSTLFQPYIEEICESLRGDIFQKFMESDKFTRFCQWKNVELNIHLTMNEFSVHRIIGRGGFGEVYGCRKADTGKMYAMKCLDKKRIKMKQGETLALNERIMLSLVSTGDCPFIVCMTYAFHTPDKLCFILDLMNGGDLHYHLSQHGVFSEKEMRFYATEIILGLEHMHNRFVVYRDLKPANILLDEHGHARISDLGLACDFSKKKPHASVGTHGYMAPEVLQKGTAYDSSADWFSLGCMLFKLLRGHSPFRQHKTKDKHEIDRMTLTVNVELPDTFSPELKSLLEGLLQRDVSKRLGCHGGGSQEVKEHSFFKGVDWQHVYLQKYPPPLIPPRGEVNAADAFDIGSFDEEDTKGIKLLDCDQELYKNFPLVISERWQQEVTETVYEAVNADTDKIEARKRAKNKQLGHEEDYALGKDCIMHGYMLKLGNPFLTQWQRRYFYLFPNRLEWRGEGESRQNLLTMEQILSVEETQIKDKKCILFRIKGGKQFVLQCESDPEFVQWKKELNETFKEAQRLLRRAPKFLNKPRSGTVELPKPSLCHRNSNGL

Set 1
Compound: C[C@H](NC(=O)c1cnc2n1[C@](C)(Cc1ccc(C#N)cc1)C(=O)N2c1cc(Cl)c(F)c(Cl)c1)C(=O)NC1(c2ccccn2)CC1
Read-out: cell-free assay
Technique: competition with immobilised ligand
Concentration: 1 µM
| target | remaining binding [%] |
| --- | --- |
| MTOR (Homo sapiens, UniProt P42345) | 96 |
| GRK3 (Homo sapiens, UniProt P35626) | 100 |
| Tyrosine-protein kinase ABL1, phosphorylated (ABL1, Homo sapiens, UniProt P00519, F317L) | 100 |
| Ribosomal protein S6 kinase alpha-1, N-terminal kinase domain (RPS6KA1, Homo sapiens, UniProt Q15418) | 100 |
| ULK3 (Homo sapiens, UniProt Q6PHR2) | 100 |

Set 2
Target: CREBL2, bZIP domain (human)
Technique: DHFR protein complementation
Matrix: yeast
Setting: single substitutions, most at no-binding floor
Relative to: wild-type JUN-FOS pair
Direction: higher = stronger binding
Parent: JUN, bZIP domain (human); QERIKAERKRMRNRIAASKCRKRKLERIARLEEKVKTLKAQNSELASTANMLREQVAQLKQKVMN; partner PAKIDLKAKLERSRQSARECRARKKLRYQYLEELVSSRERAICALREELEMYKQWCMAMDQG
| Variant | binding fitness [natural log] |
| --- | --- |
| S43R | -1.44 |
| K39A | -1.3 |
| R53Q | -1.45 |
| S43K | -1.51 |
| N42G | -1.5 |
| M51E | -1.52 |
| Q55M | -1.32 |
| A57M | -1 |

Set 3
Target: Protein kinase C gamma type (PRKCG, Homo sapiens, UniProt P05129)
Read-out: enzyme activity
Mode: inhibitor
Concentration: 0.5 µM
Relative to: control
| Compound | remaining activity |
| --- | --- |
| CN(C)C[C@H]1CCn2c(c(C3=C(c4cn(C)c5ccccc45)C(=O)NC3=O)c3ccccc32)C1 | 6.93% |
| CCOc1nc(NC(=O)Cc2cc(OC)ccc2OC)cc(N)c1C#N | 95.4% |
| C[C@@H]1CCN(C(=O)CC#N)C[C@@H]1N(C)c1ncnc2[nH]ccc12 | 90.6% |
| Cn1nc2c3c(cccc31)C(=O)c1ccccc1-2 | 90.6% |
| N#Cc1c(NC(=O)c2cccc3ccccc23)sc2c1CCCC2 | 95.4% |
| CCN(CC)CCNC(=O)c1c(C)[nH]c(/C=C2\C(=O)Nc3ccc(Cl)cc32)c1C | 101% |
| N#C/C(=C\c1ccc(O)c(O)c1)C(=O)NCc1ccccc1 | 97.2% |
| Nc1cccc(-c2cc3c(Oc4cccc(O)c4)ncnc3[nH]2)c1 | 88.1% |
| O=C(NC(NC(=S)Nc1ccc(F)c([N+](=O)[O-])c1)C(Cl)(Cl)Cl)C(c1ccccc1)c1ccccc1 (stereo not shown) | 99.8% |
| CCN(CC)C(=O)c1ccc(Nc2nc(OCC3CCCCC3)c3[nH]cnc3n2)cc1 | 94.5% |
| COc1cc2c(cc1OC)-c1[nH]nc(Nc3cccc(F)c3)c1C2 | 102% |
| COc1cc2ncnc(Nc3cccc(Cl)c3)c2cc1OC | 105% |
| O=C1c2ccccc2-c2n[nH]c3cccc1c23 | 98.3% |
| c1ccc(-c2[nH]ncc2-c2ccnc3ccccc23)nc1 | 117% |

Single results of other studies
| Structure (SMILES) | assay | system | setting | measurement | value |
| --- | --- | --- | --- | --- | --- |
| CC(C)n1cnc(-c2ccc(F)cc2)c1-c1ncc(C(=O)Nc2ccc(N3CCN(C)CC3)cc2)[nH]1 | phase 2a clinical trial | patients with idiopathic pulmonary fibrosis | 30 mg once daily | patients with chronic gastritis TEAE | 0% |

For quick reference, copied from above (set 3):
| Compound | remaining activity |
| --- | --- |
| c1ccc(-c2[nH]ncc2-c2ccnc3ccccc23)nc1 | 117% |
| Nc1cccc(-c2cc3c(Oc4cccc(O)c4)ncnc3[nH]2)c1 | 88.1% |
| COc1cc2c(cc1OC)-c1[nH]nc(Nc3cccc(F)c3)c1C2 | 102% |
